Measured values pooled from the literature.
Lines come from different studies, so protocols differ. ± marks the error that the study gave.
SLC6A4: Sodium-dependent serotonin transporter (SLC6A4, Homo sapiens, UniProt P31645)
APP Aβ1-40: Amyloid-beta precursor protein, Aβ1-40 (APP, Homo sapiens, UniProt P05067)
Sigmar1: Sigma non-opioid intracellular receptor 1 (Sigmar1, Rattus norvegicus, UniProt Q9R0C9)
CAPN1: Calpain-1 catalytic subunit (CAPN1, Homo sapiens, UniProt P07384)

Amino acid sequences for entries named in this document (tags omitted). Residues count along the entry.
UniProt P31645, whole entry: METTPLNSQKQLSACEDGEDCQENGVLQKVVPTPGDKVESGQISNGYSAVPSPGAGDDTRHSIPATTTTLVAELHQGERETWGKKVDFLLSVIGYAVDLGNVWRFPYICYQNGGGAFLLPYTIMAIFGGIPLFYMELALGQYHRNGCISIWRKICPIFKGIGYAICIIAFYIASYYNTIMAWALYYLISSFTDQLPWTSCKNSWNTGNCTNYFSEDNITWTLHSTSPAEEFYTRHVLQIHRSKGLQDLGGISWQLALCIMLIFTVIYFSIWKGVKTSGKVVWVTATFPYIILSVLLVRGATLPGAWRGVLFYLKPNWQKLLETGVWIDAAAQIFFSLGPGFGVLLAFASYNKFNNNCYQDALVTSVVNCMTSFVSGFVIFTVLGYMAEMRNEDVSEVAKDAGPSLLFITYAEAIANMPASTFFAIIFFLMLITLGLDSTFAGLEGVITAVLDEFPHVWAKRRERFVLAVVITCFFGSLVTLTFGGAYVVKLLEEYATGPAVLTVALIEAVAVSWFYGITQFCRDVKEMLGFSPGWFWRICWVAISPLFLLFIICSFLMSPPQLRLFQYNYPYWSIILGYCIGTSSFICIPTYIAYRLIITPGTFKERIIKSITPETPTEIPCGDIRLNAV
UniProt P05067, whole entry, looked up: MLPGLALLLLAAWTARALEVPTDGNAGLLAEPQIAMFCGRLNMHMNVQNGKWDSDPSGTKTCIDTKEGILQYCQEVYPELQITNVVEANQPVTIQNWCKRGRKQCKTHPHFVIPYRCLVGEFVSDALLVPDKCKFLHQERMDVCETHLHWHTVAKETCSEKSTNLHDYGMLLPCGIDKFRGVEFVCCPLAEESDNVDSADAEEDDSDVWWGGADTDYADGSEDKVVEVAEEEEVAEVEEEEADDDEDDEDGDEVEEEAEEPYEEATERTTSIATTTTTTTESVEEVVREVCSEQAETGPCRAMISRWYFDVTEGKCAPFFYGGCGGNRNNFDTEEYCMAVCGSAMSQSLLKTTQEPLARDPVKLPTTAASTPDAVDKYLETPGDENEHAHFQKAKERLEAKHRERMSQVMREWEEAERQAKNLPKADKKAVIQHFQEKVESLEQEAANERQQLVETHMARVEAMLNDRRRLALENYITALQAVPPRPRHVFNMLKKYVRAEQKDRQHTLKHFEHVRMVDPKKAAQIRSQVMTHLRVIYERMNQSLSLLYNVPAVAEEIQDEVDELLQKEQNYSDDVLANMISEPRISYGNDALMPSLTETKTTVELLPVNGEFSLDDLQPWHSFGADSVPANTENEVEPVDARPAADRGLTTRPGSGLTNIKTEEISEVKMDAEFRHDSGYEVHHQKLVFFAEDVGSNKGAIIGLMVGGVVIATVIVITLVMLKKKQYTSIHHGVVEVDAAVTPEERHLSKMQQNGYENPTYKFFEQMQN
UniProt Q9R0C9, whole entry: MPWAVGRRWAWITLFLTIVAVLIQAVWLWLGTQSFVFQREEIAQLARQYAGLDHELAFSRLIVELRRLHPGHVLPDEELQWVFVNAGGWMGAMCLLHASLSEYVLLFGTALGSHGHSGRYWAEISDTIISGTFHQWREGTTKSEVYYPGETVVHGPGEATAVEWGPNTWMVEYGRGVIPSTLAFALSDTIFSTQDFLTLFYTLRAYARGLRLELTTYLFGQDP
UniProt P07384, whole entry: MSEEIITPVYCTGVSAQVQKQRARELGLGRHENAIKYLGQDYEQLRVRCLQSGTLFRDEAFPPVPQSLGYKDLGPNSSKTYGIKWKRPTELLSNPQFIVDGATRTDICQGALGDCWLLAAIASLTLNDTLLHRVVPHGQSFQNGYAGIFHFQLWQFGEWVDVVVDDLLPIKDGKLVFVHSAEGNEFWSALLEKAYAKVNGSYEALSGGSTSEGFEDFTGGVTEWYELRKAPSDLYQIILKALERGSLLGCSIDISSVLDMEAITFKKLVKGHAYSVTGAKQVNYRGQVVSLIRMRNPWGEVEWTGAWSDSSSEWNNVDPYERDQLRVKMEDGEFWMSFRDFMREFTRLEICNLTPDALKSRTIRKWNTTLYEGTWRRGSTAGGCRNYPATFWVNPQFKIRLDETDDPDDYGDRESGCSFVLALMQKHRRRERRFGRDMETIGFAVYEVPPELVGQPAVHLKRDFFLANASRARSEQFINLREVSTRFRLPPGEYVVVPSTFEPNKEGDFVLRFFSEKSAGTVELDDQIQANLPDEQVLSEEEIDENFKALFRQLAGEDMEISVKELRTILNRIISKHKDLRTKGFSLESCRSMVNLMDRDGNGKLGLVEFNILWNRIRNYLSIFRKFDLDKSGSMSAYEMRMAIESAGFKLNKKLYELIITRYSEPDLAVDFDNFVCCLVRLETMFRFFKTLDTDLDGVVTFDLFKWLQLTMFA
UniProt P54753, 633-896 limits assumed: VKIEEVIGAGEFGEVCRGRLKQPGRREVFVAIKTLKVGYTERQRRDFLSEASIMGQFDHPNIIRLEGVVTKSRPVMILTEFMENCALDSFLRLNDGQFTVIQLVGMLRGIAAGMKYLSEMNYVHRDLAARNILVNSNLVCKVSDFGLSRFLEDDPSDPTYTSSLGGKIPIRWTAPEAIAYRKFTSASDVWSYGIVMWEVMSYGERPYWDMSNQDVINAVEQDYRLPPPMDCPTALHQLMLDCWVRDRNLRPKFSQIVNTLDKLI
UniProt P08246, 30-247 limits assumed: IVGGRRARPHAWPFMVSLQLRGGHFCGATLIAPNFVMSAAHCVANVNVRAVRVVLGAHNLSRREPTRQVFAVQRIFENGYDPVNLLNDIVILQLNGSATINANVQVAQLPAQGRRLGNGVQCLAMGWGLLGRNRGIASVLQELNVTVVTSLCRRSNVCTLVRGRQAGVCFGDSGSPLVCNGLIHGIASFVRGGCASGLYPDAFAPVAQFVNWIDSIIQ
UniProt Q96EB6, whole entry, looked up: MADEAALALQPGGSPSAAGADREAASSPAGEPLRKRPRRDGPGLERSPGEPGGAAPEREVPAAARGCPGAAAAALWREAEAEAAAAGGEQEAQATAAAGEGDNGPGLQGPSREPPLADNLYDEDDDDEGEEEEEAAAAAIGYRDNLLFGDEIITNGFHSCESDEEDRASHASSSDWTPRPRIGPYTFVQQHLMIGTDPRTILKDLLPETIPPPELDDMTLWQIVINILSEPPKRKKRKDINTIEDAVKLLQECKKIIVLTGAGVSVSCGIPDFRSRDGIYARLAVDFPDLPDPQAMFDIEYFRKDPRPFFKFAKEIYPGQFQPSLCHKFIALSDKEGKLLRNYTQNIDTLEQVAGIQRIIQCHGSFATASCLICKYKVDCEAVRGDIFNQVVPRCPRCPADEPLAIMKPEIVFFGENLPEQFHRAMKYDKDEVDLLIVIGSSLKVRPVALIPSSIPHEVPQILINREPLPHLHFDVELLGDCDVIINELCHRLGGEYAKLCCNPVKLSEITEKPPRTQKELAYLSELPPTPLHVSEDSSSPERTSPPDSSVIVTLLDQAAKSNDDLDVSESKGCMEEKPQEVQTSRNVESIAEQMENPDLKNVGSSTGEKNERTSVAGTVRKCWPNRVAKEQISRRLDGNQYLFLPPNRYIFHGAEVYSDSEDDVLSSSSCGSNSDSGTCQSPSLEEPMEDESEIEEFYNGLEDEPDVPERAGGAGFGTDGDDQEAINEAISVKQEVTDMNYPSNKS
UniProt Q8N6T7, whole entry: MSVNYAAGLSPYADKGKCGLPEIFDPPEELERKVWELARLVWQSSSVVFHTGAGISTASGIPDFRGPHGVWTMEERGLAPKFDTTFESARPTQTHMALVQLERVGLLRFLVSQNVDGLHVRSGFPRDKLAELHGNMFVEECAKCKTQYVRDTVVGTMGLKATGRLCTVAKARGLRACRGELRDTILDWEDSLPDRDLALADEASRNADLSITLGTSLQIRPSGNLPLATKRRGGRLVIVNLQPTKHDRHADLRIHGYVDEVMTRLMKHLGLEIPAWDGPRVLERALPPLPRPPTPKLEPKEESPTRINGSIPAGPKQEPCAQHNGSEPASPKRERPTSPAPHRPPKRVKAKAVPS
UniProt Q00534, whole entry: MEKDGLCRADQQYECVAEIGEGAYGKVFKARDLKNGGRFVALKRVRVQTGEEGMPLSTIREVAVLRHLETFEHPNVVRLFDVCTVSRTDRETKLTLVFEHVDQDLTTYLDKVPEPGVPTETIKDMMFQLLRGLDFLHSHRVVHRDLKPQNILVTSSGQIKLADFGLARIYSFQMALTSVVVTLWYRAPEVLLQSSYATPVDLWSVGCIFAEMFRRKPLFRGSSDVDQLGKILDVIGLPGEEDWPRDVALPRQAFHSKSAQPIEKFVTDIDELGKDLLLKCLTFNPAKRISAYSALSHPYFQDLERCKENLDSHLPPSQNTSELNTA
UniProt Q9HCG7, whole entry: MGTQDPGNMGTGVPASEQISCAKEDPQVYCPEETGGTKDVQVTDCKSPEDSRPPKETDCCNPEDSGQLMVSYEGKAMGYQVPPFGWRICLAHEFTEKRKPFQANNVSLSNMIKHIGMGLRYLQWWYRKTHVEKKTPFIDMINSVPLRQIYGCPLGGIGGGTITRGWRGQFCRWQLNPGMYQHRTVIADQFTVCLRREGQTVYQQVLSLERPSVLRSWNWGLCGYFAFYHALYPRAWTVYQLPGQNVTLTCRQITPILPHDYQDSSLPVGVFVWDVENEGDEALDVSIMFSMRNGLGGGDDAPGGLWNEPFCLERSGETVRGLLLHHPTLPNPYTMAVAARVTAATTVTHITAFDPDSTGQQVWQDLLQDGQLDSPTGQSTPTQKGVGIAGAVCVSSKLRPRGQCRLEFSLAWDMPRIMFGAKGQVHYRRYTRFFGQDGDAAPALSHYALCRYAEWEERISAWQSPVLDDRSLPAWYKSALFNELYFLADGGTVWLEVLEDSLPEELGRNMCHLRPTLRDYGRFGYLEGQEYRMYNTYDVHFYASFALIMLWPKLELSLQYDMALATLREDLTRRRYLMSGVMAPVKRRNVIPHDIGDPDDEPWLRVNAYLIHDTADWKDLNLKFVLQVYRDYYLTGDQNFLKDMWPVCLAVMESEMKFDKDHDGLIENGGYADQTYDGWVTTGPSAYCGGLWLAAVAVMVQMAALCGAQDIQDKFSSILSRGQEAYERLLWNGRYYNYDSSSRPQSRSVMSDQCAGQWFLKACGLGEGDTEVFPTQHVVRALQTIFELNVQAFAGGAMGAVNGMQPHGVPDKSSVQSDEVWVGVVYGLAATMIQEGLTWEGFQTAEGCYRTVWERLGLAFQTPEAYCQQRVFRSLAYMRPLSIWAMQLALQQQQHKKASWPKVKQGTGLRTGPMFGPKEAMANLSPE
UniProt P45983, 1-384 isoform 3: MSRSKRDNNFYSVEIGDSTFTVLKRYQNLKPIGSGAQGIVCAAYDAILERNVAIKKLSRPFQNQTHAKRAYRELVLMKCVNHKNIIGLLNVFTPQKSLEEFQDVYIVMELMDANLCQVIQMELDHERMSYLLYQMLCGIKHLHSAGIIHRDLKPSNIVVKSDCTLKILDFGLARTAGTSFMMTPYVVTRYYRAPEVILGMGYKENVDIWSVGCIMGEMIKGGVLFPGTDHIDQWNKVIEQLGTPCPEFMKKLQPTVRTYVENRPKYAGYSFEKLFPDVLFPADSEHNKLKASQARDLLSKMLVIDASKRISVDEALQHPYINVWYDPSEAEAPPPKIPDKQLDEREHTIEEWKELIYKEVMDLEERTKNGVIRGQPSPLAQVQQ
UniProt P56658, whole entry: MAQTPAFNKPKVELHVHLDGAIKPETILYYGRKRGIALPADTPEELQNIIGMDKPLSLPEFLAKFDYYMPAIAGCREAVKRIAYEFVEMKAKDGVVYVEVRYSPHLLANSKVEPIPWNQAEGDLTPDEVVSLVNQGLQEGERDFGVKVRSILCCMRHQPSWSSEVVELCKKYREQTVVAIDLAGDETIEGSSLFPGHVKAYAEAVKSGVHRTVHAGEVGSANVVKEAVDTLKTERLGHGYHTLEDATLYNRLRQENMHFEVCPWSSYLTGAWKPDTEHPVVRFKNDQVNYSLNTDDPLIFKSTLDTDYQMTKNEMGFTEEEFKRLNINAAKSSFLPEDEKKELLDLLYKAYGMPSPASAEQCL
UniProt Q01959, whole entry: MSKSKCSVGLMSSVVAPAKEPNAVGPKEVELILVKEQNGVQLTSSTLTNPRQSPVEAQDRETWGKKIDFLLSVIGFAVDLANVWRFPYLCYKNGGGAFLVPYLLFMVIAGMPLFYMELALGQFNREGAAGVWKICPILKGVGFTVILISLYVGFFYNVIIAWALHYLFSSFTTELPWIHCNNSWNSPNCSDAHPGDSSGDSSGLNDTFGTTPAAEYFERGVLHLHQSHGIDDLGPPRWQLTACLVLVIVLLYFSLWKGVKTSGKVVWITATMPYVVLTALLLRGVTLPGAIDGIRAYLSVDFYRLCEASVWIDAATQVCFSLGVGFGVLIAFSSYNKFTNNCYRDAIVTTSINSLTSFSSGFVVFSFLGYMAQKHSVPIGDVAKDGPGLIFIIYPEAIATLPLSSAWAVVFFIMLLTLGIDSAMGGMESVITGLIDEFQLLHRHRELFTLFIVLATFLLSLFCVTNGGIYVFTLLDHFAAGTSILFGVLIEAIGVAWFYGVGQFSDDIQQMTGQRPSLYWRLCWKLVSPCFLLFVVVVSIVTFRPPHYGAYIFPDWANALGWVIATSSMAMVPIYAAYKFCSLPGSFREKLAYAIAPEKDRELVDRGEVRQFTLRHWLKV

N#CC[C@@]12C[C@@H]1[C@@H](n1cnc3c(NCc4cccc(Cl)c4)nc(I)nc31)[C@H](O)[C@@H]2O
inhibition (SLC6A4; binding, radioligand binding; HEK293; 10 µM, negative means enhanced binding, with: [3H]citalopram): 12 ± 3%

COc1ccc2c(c1)CN(C(=O)OC(C(F)(F)F)C(F)(F)F)C2
inhibition (Monoglyceride lipase (MGLL, Homo sapiens, UniProt Q99685); inhibitor, fluorescence; 1 µM, with: AHMMCE substrate): inactive

CC[C@@]1(c2cccc(C)c2)C(=O)N(C(=O)OC)N1C(=O)OC
inhibition (Palmitoyl-protein thioesterase ABHD10, mitochondrial (Mus musculus, UniProt Q6PE15); inhibitor, competitive ABPP gel; COS-7 proteome overexpressing ABHD10; concentration not given): inhibited

N#Cc1ccc2[nH]cc(/C=C/c3cccc(F)c3)c2c1
inhibition (APP Aβ1-40; Aβ40 aggregation, thioflavin T fluorescence; 25 µM): 0%

C/C(=N\OCCN1CCCc2ccccc2C1)c1ccc(C(F)(F)F)cc1
inhibition (Sigmar1; radioligand binding; rat; 10 µM): 95.1%

Cc1cc(SCc2sc(-c3ccccc3C(F)(F)F)nc2C)ccc1OCC(=O)O
CC50 (HEK293T; 18 h): > 100 µM

CCNC(=O)C(=O)[C@H](Cc1ccccc1)NC(=O)[C@H]1CCC(=O)N1Cc1ccc(F)cc1
inhibition (CAPN1; enzyme activity, inhibitor; 1 µM): 85.2%

COc1ccc2[nH]cc(/C=C/c3ccc(OS(=O)(=O)c4ccc(C)cc4)cc3)c2c1
inhibition (APP Aβ1-40; Aβ40 aggregation, thioflavin T fluorescence; 25 µM): 20%

CNc1nc(C#Cc2ccc(Cl)s2)nc2c1ncn2[C@H]1[C@H](O)[C@H](O)[C@]2(C(=O)OC(C)C)C[C@H]12
inhibition (SLC6A4; binding, radioligand binding; HEK293; 10 µM, negative means enhanced binding, with: [3H]citalopram): 13 ± 1%

COc1ccc2[nH]cc(/C=C/c3ccc(OS(C)(=O)=O)cc3)c2c1
inhibition (APP Aβ1-40; Aβ40 aggregation, thioflavin T fluorescence; 25 µM): 36%

O=C(CCl)Nc1ccc2c(Nc3ccccc3)ncnc2c1
inhibition (Ephrin type-B receptor 3 (EPHB3, Homo sapiens, UniProt P54753); kinase activity, inhibitor; 2 µM; baseline: DMSO): > 80%

Cc1cccc(C(=O)n2cc(C#N)c3ccccc32)c1
inhibition (Neutrophil elastase (ELANE, Homo sapiens, UniProt P08246); enzyme activity, fluorogenic substrate; up to 50 µM): inactive

Fc1ccc2[nH]cc(/C=C/c3ccncc3)c2c1
inhibition (APP Aβ1-40; Aβ40 aggregation, thioflavin T fluorescence; 25 µM): 24%

O=C(Nc1cccc(F)c1)c1cc(S(=O)(=O)N2CCOCC2)c(Cl)cc1Cl
inhibition (Autotaxin (ENPP2, Homo sapiens, UniProt Q13822); enzyme activity, inhibitor, TLC densitometry, refers to: fluorescent LPA; 10 µM, 4 h, 37 °C, with: 30 µM fluorescent LPC substrate): 85 ± 11%

COC(=O)/C=C/CNC(=O)c1c(C)n(C2CCCC2)c2ccc(OC)cc12
inhibition (E3 ubiquitin-protein ligase NEDD4 (Homo sapiens, UniProt P46934); ubiquitination, inhibitor, Ub-TR-FRET; 100 µM, HECT domain): 70.9 ± 11.9%

CCCCCCCCCCCCNC(=S)NCCCC[C@H](NC(=O)CCCCCCCC)C(=O)N[C@H](C)C(=O)N[C@@H](CCCNC(=N)N)C(N)=O
inhibition (NAD-dependent protein deacetylase sirtuin-1 (SIRT1, Homo sapiens, UniProt Q96EB6); deacetylation, inhibitor; 10 µM, with: acetylated peptide 50 µM): 55%

COC(=O)/C(=C/c1c[nH]c2ccc(OC)cc12)c1ccc(NS(C)(=O)=O)cc1
inhibition (APP Aβ1-40; Aβ40 aggregation, thioflavin T fluorescence; 25 µM): 0%

COc1cc([C@@H]2c3cc4c(cc3[C@@H](CC(C)(C)O)[C@H]3COC(=O)[C@H]23)OCO4)cc(OC)c1OC
EC50 (Leishmania infantum; iRFP fluorescence; mouse splenocytes infected, amastigote, iRFP, ex vivo splenic explant; 48 h): 53.7 ± 5.2 µM

O=C(NC1CC1)C(=O)[C@H](Cc1ccccc1)NC(=O)[C@H]1CCC(=O)N1Cc1ccccc1
inhibition (CAPN1; enzyme activity, inhibitor; 1 µM): 86.7%

CCn1nccc1N=CC1=Cc2cc3c(cc2[C@@H](c2cc(OC)c(OC)c(OC)c2)[C@@H]1C(=O)OC)OCO3
selectivity index (Leishmania; mouse splenocytes; baseline: CC50 over amastigote EC50): 0.3

CCC1NC(=O)C(CCCNC(=N)N)NC(=O)C(C)(NC(=O)C(C)C)CCCCNC(=O)C(c2ccccc2)NC1=O (centres unmarked)
inhibition (Histone-lysine N-methyltransferase EZH2, PRC2 complex (EZH2, Homo sapiens, UniProt Q15910); methyltransferase activity, inhibitor; up to 500 µM): no inhibition

NC(=O)c1ccc(C(=O)NOCc2ccccc2F)cc1
inhibition (NAD-dependent protein deacylase sirtuin-6 (SIRT6, Homo sapiens, UniProt Q8N6T7); deacetylase activity, fluorogenic; 100 µM, with: RHKK-ac-AMC): 75.5 ± 3.54%

C/C(=N\OCCN1CCc2ccccc2CC1)c1ccc(C(F)(F)F)cc1
inhibition (Sigmar1; radioligand binding; rat; 10 µM): 96%

COc1ccc2[nH]cc(/C=C/c3cccc(F)c3)c2c1
inhibition (APP Aβ1-40; Aβ40 aggregation, thioflavin T fluorescence; 25 µM): 41%

CN(C)C(=O)Cn1cc(-c2ccc(-c3cncc4ccncc34)cc2)cn1
inhibition (Cyclin-dependent kinase 6 (CDK6, Homo sapiens, UniProt Q00534); enzyme activity, SelectScreen; concentration not given): no inhibition

OCC1C(O)C(O)C(O)CN1CC(F)(F)CCCOCc1ccc(-c2ccccc2)cc1 (centres unmarked)
inhibition (Beta-glucosidase (GBA2, Homo sapiens, UniProt Q9HCG7); inhibitor, FluoPol-ABPP competition; GBA2-overexpressing cell lysate; 0.1 µM): 30.4%

CCNC(=O)C(=O)[C@H](Cc1ccccc1)NC(=O)[C@H]1CCC(=O)N1Cc1ccccc1
inhibition (CAPN1; enzyme activity, inhibitor; 1 µM): 84.2%

CCOC(=O)/C=C/CNCCCCN1c2ccccc2CCc2ccc(Cl)cc21
inhibition (E3 ubiquitin-protein ligase NEDD4, HECT domain (Homo sapiens, UniProt P46934, L972F); ubiquitin chain formation, inhibitor; 10 µM, 30 min): no inhibition

COC(=O)[C@@]1(C)C=C(C(=O)Nc2cccc(C(=O)NC34CC(Nc5nccc(-c6cccnc6)n5)(C3)C4)c2)C(=O)CC1
remaining activity (Mitogen-activated protein kinase 8 (MAPK8, Homo sapiens, UniProt P45983); kinase activity, inhibitor; 0.02032 µM, unit not given, with: 10 mM GSH; baseline: DMSO): 0.542

COC(=O)/C(=C/c1c[nH]c2ccc(F)cc12)c1ccc(NS(C)(=O)=O)cc1
inhibition (APP Aβ1-40; Aβ40 aggregation, thioflavin T fluorescence; 25 µM): 0%

Oc1ccccc1C1=NCCCO1
inhibition (Adenosine deaminase (ADA, Bos taurus, UniProt P56658); enzyme activity, inhibitor, fluorescence; 100 µM): < 10%

O=C(CCc1ccccc1)N1CCC(O)(Cn2cnc3cc(Cl)ccc3c2=O)CC1
inhibition (Ubiquitin carboxyl-terminal hydrolase 7 (USP7, Homo sapiens, UniProt Q93009, Y514A); enzyme activity; up to 100 µM, mutant catalytic domain, with: Ub-AMC): no inhibition

COc1ccc2[nH]cc(/C=C/c3cccnc3)c2c1
inhibition (APP Aβ1-40; Aβ40 aggregation, thioflavin T fluorescence; 25 µM): 27%

COc1ccc(CN(C)CCO/N=C(\C)c2ccc(C(F)(F)F)cc2)cc1
inhibition (Sigmar1; radioligand binding; rat; 10 µM): 87.8%

CCCSc1nc(N[C@@H]2C[C@H]2c2ccc(F)c(F)c2)c2nnn([C@@H]3C[C@H](O)[C@@H](O)[C@H]3O)c2n1
inhibition (Sodium-dependent dopamine transporter (SLC6A3, Homo sapiens, UniProt Q01959); binding; concentration not given, rat free Cmax): no inhibition

Some of these lines once more:
CCNC(=O)C(=O)[C@H](Cc1ccccc1)NC(=O)[C@H]1CCC(=O)N1Cc1ccc(F)cc1
inhibition (CAPN1; enzyme activity, inhibitor; 1 µM): 85.2%

COc1cc([C@@H]2c3cc4c(cc3[C@@H](CC(C)(C)O)[C@H]3COC(=O)[C@H]23)OCO4)cc(OC)c1OC
EC50 (Leishmania infantum; iRFP fluorescence; mouse splenocytes infected, amastigote, iRFP, ex vivo splenic explant; 48 h): 53.7 ± 5.2 µM

COc1ccc2[nH]cc(/C=C/c3ccc(OS(C)(=O)=O)cc3)c2c1
inhibition (APP Aβ1-40; Aβ40 aggregation, thioflavin T fluorescence; 25 µM): 36%
